Assay results from different studies.
Compare with care: the assays were run in different laboratories.

Compound | method | host | medium | route | dose | Tmax [h]
CC(C)C[C@H](NC(=O)[C@H](Cc1ccccc1)NC(=O)CNC(=O)C/C=C(\F)[C@@H](N)Cc1ccc(O)cc1)C(=O)O |  | BALB/c mice | brain | intravenous | 50 mg/kg | 0.0833
CCCCCC1=C(NCC)C(=O)C(C/C=C(\C)CCC=C(C)C)=C(O)C1=O |  | CD-1 mice | plasma | oral | 50 mg/kg | 4
CCn1ccc(-c2cc(-c3cnn(C)c3)cc([C@@H](C)NC(=O)c3cc(OCCN(C)C)ccc3C)c2)n1 |  | C57BL/6J mice, male | plasma | oral | 50 mg/kg | 1.67
CCCCCCCCCCCCCCCC(=O)NCCCC[C@H](NC(=O)[C@H](CCC(=O)O)NC(=O)[C@H](Cc1ccc(O)cc1)NC(=O)[C@H](CCC(=O)O)NC(=O)COCC(=O)NCCCOCCOCCOCCCNC(=O)[C@H](Cc1ccccc1)NC(=O)[C@H](CC(N)=O)NC(=O)[C@H](Cc1c[nH]cn1)NC(=O)[C@@H](NC(=O)[C@H](CC(=O)O)NC(=O)[C@H](CCC(N)=O)NC(=O)[C@H](CC(C)C)NC(=O)[C@H](CCCCN)NC(=O)[C@H](CCCCN)NC(=O)[C@H](CCCNC(=N)N)NC(=O)[C@H](CC(C)C)NC(=O)[C@H](Cc1c[nH]c2ccccc12)NC(=O)[C@H](CCC(=O)O)NC(=O)[C@@H](NC(=O)[C@H](CCCNC(=N)N)NC(=O)[C@H](CCC(=O)O)NC(=O)[C@H](CCSC)NC(=O)[C@H](CO)NC(=O)[C@H](CC(N)=O)NC(=O)[C@H](CC(C)C)NC(=O)[C@H](Cc1c[nH]cn1)NC(=O)[C@H](CCCCN)NC(=O)CNC(=O)[C@H](CC(C)C)NC(=O)[C@H](CC(N)=O)NC(=O)[C@H](Cc1c[nH]cn1)NC(=O)[C@H](CCSC)NC(=O)[C@H](CC(C)C)NC(=O)[C@H](CCC(N)=O)NC(=O)[C@@H](NC(=O)[C@H](CCC(=O)O)NC(=O)[C@H](CO)NC(=O)[C@@H](NC(=O)[C@@H](N)CO)C(C)C)[C@@H](C)CC)C(C)C)C(C)C)C(=O)N[C@@H](CCC(=O)O)C(=O)N[C@@H](Cc1ccc(O)cc1)C(=O)N[C@@H](CCC(=O)O)C(N)=O | ELISA | CD-1 mice | blood | sc | 10 nmol/kg | 1
C[C@H](CCC(=O)N[C@@H](CCCCNC(=O)C(F)(F)F)C(=O)O)[C@H]1CC[C@H]2[C@@H]3[C@H](O)C[C@@H]4C[C@H](O)CC[C@]4(C)[C@H]3C[C@H](O)[C@]12C |  | C57BL/6J mice | gallbladder | oral | dose not given | 4 to 7
CC(C)[C@H]1NC(=O)C[C@H]2/C=C/CCSSC[C@@H](NC1=O)C(=O)N[C@H](Cc1cccc3ccccc13)C(=O)NCC(=O)O2 |  | BALB/cAJcl-nu/nu mice | plasma | intraperitoneal or oral | dose not given | 0.25
CN1c2ccc(OC(=O)Nc3ccncc3)cc2C2(C)CCOC12 (centres unmarked) |  | wild-type mice | brain | subcutaneous | 20 mg/kg | ~1
CC[C@H](C)[C@H](NC(=O)[C@H](CC(N)=O)NC(=O)[C@H](CC(N)=O)NC(=O)[C@H](CCCNC(=N)N)NC(=O)[C@H](CC(N)=O)NC(=O)[C@H](CCCNC(=N)N)NC(=O)[C@H](CCCCN)NC(=O)[C@@H](NC(=O)[C@H](CC(N)=O)NC(=O)[C@H](CCSC)NC(=O)[C@H](CC(C)C)NC(=O)[C@H](Cc1c[nH]c2ccccc12)NC(=O)[C@H](CCC(N)=O)NC(=O)[C@@H](NC(=O)[C@H](Cc1ccccc1)NC(=O)[C@H](CC(=O)O)NC(=O)[C@H](CCC(N)=O)NC(=O)[C@H](C)NC(=O)[C@H](CCCNC(=N)N)NC(=O)[C@H](CCCNC(=N)N)NC(=O)[C@H](CO)NC(=O)[C@H](CC(=O)O)NC(=O)[C@H](CC(C)C)NC(=O)[C@H](Cc1ccc(O)cc1)NC(=O)[C@H](CCCCN)NC(=O)[C@H](CO)NC(=O)[C@H](Cc1ccc(O)cc1)NC(=O)[C@H](CC(=O)O)NC(=O)[C@H](CO)NC(=O)[C@@H](NC(=O)[C@H](Cc1ccccc1)NC(=O)[C@@H](NC(=O)CNC(=O)[C@H](CCC(=O)O)NC(=O)[C@@H](CO)NC(=O)[C@@H](N)Cc1c[nH]cn1)[C@@H](C)O)[C@@H](C)O)C(C)C)[C@@H](C)O)C(=O)N[C@@H](C)C(=O)N[C@@H](CSCC(=O)NCCOCCOCCOCCOCCC(=O)O[C@H]1CC[C@@]2(C)C(=CC[C@H]3[C@@H]4CC[C@H]([C@H](C)CCCC(C)C)[C@@]4(C)CC[C@@H]32)C1)C(N)=O |  | diet-induced obese mice | plasma | subcutaneous | dose not given | ~5

Repeated from above:
Compound | method | host | medium | route | dose | Tmax [h]
CCCCCCCCCCCCCCCC(=O)NCCCC[C@H](NC(=O)[C@H](CCC(=O)O)NC(=O)[C@H](Cc1ccc(O)cc1)NC(=O)[C@H](CCC(=O)O)NC(=O)COCC(=O)NCCCOCCOCCOCCCNC(=O)[C@H](Cc1ccccc1)NC(=O)[C@H](CC(N)=O)NC(=O)[C@H](Cc1c[nH]cn1)NC(=O)[C@@H](NC(=O)[C@H](CC(=O)O)NC(=O)[C@H](CCC(N)=O)NC(=O)[C@H](CC(C)C)NC(=O)[C@H](CCCCN)NC(=O)[C@H](CCCCN)NC(=O)[C@H](CCCNC(=N)N)NC(=O)[C@H](CC(C)C)NC(=O)[C@H](Cc1c[nH]c2ccccc12)NC(=O)[C@H](CCC(=O)O)NC(=O)[C@@H](NC(=O)[C@H](CCCNC(=N)N)NC(=O)[C@H](CCC(=O)O)NC(=O)[C@H](CCSC)NC(=O)[C@H](CO)NC(=O)[C@H](CC(N)=O)NC(=O)[C@H](CC(C)C)NC(=O)[C@H](Cc1c[nH]cn1)NC(=O)[C@H](CCCCN)NC(=O)CNC(=O)[C@H](CC(C)C)NC(=O)[C@H](CC(N)=O)NC(=O)[C@H](Cc1c[nH]cn1)NC(=O)[C@H](CCSC)NC(=O)[C@H](CC(C)C)NC(=O)[C@H](CCC(N)=O)NC(=O)[C@@H](NC(=O)[C@H](CCC(=O)O)NC(=O)[C@H](CO)NC(=O)[C@@H](NC(=O)[C@@H](N)CO)C(C)C)[C@@H](C)CC)C(C)C)C(C)C)C(=O)N[C@@H](CCC(=O)O)C(=O)N[C@@H](Cc1ccc(O)cc1)C(=O)N[C@@H](CCC(=O)O)C(N)=O | ELISA | CD-1 mice | blood | sc | 10 nmol/kg | 1
